Experimental data gathered from unrelated publications.
Each line is one published result; not all experiments were run side by side. Numbers after ± are the reported error.
Target: Sodium-dependent dopamine transporter (SLC6A3, Homo sapiens, UniProt Q01959)
Chain of UniProt Q01959 (whole entry, looked up): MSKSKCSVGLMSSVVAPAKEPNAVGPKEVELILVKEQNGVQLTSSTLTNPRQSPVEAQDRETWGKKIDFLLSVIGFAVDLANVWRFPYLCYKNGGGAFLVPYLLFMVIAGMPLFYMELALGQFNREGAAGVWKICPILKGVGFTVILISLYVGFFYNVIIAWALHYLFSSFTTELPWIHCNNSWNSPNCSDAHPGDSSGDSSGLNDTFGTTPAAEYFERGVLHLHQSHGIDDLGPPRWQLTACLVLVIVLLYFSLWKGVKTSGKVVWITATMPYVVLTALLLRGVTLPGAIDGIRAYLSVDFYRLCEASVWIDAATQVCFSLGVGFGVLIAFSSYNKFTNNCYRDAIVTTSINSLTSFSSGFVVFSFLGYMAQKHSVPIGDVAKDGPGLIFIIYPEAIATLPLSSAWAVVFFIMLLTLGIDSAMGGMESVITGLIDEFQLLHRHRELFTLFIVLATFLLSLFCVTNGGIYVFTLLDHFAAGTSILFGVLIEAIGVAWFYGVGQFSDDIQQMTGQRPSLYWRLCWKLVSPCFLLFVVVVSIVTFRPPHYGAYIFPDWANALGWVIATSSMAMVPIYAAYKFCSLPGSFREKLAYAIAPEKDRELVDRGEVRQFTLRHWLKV

Structure (SMILES) | test | test system | setting | endpoint | value
CC(C(=O)c1ccc2c(c1)OCO2)N(C)C (stereo not drawn) | [3H]dopamine release, releaser | HEK293 expressing target | – | EC50 | > 10 µM
CNC(C)C(=O)c1ccc(O)c(OC)c1 (stereo not drawn) | transporter uptake, inhibitor, radiometric | – | – | IC50 | 0.34 µM
CCCC(NCC)C(=O)c1ccc2c(c1)OCO2 (stereo not drawn) | [3H]dopamine release, releaser | HEK293 expressing target | – | EC50 | > 10 µM
COc1cc(CC(C)N)ccc1O (stereo not drawn) | transporter uptake, inhibitor, radiometric | – | – | IC50 | 0.13 µM
CCN(CC)C(=O)[C@@H]1C=C2c3cccc4[nH]cc(c34)C[C@H]2N(C)C1 | transporter uptake, inhibitor, radiometric | – | – | IC50 | > 10 µM
CCc1ccc2[nH]c3nc(SCCNS(=O)(=O)c4ccc(NC(C)=O)cc4)nnc3c2c1 | transporter uptake, inhibitor, radiometric | – | – | IC50 | 3.7 µM
CCNC(C)C(=O)c1ccc(Cl)cc1 (stereo not drawn) | [3H]dopamine release, releaser | HEK293 expressing target | – | EC50 | > 100 µM
COc1cc(CC(C)N)c(OC)cc1C (single isomer, unassigned; (-)) | transporter uptake, inhibitor, radiometric | – | – | IC50 | > 100 µM
COC(=O)[C@H]1C(c2ccc(I)cc2)C[C@@H]2CC[C@H]1N2C (stereo partly drawn) | binding, radioligand saturation binding | HEK293 hDAT membranes | 16 h, room temperature | Kd | 0.0094 ± 0.0028 µM

For quick reference, copied from above:
Structure (SMILES) | test | test system | setting | endpoint | value
CCN(CC)C(=O)[C@@H]1C=C2c3cccc4[nH]cc(c34)C[C@H]2N(C)C1 | transporter uptake, inhibitor, radiometric | – | – | IC50 | > 10 µM
